Assay results pooled from the literature.
Lines come from different studies, so protocols differ. Several values in a cell are separate wells, animals, samples, runs or records.
Target: Serine/threonine-protein kinase 3 (STK3, Homo sapiens, UniProt Q13188)
Residues used in one study (Q13188 1-491): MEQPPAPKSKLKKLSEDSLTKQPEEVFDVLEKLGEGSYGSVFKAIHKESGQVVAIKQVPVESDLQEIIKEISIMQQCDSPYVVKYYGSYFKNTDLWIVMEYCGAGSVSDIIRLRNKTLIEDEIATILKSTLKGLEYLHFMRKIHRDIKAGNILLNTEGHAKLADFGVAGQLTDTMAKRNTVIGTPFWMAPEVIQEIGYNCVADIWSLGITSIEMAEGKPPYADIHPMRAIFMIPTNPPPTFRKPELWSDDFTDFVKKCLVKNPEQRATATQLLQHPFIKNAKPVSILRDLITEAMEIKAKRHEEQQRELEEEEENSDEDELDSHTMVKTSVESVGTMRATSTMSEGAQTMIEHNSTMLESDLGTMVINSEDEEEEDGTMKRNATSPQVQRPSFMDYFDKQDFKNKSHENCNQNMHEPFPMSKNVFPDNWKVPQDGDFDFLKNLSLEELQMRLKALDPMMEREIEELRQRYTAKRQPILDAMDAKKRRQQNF

SMILES	assay	test system	setting	scale	endpoint	value
CNC1C[S+]2CC[S+]3CC[S+](C1)[Ru-4]321([N]=C=S)[n]2c3ccc(OC)cc3c3c4c(c5cc(F)c[n+]1c5c32)C(=O)NC4=O (stereo not drawn)	KinomeScan	–	0.1 µM	baseline: untreated	remaining binding	95%
O=C(Cc1ccc(OCc2ccccc2)cc1)NC1(C(=O)O)CCN(C(=O)c2ccc(-c3cccc(Cl)c3)cc2)CC1	enzyme activity, inhibitor	–	10 µM	–	activity vs control	100%
CC(C)=CC1OC(C)(C)C2C=C3C(=O)C(Cl)=CC(O)C3C3C(O)C4OC4C(=O)C132 (stereo not drawn)	cell-free assay, competition with immobilised ligand	–	10 µM	–	remaining binding	100%
Cc1cccc(O[C@H]2CCC[C@@H](C(C)CNCc3ccncc3)C2)c1 (relative stereo)	enzyme activity, inhibitor	–	1 µM	–	inhibition	4%
c1ccc2c(Nc3cc(C4CCC4)[nH]n3)nc(Nc3ccc4nc[nH]c4c3)nc2c1	enzyme activity, inhibitor	–	0.25 µM	–	remaining activity	2%
C=CC(=O)N1CCc2ccc(-n3c(=O)ccc4cnc5ccc(-c6cnn(C)c6)cc5c43)cc21	KINOMEscan	–	1 µM	baseline: DMSO control	remaining binding	100%
CNC(=O)C[C@H](Cc1ccc(C#N)cc1)NC(=O)c1cc(-c2ccc(CN[C@H](C)c3ccc(C)cc3)o2)ccc1Cl	enzyme activity, inhibitor	–	1 µM	–	activity vs control	101%
Cc1cccc(-c2ccc3nc(NC(=O)C4CCOCC4)nn3c2)c1	enzyme activity, Dundee kinase panel	–	10 µM	–	remaining activity	94%
COC(=O)[C@@]1(C)C=C(C(=O)Nc2cccc(C(=O)Nc3ccc(Nc4nccc(-c5cccnc5)n4)c(C)c3)c2)C(=O)CC1	enzyme activity, inhibitor, radiometric	–	1 µM	–	remaining activity	90%
COc1c(OCCCN2CCOCC2)ccc2c1N=C(NC(=O)c1cnc(N)nc1)N1CCN=C21	kinase activity, inhibitor	–	1 µM	baseline: untreated control	remaining activity	121%
CN1CCN(Cc2ccc(-c3ccc(CO[C@H]4CCC[C@@H]4NC(=O)c4cc(-c5cnn(C)c5)cnc4N)cc3)cc2)CC1	enzyme activity, inhibitor	–	0.1 µM	–	inhibition	3%
COc1cc(Nc2nccc(-c3cnn4nc(OC)ccc34)n2)cc(C(F)(F)F)c1	binding, competition with immobilised ligand	–	1 µM	–	remaining binding	91%
Nc1ncc2c(n1)-c1c([nH]c3ccc(C4=CCOCC4)cc13)CCC2	binding, competition with immobilised ligand	–	1 µM	–	remaining binding	100%
Nc1ncc(-c2cc(-c3cnn(CC(F)(F)F)c3)ncc2F)nc1C(=O)NC1CNCC(F)C1 (stereo not drawn)	enzyme activity	–	1 µM	baseline: DMSO control	remaining activity	83.2%
Cc1ccc(C)c(-c2ccc3nc(NC(=O)C4CCCCC4)nn3c2)c1	enzyme activity, Dundee kinase panel	–	10 µM	–	remaining activity	94%
C=CC(=O)Nc1cccc(-c2cnc3[nH]cc(C(=O)NC(C)(C)C)c3n2)c1	enzyme activity, inhibitor	–	0.1 µM	–	inhibition	73%
NC(=O)[C@@H](O)C[C@H]1CCc2sc3ncnc(O[C@H]4CC[C@H](N5CCOCC5)CC4)c3c21	enzyme activity, inhibitor	–	10 µM	–	inhibition	-1%
CCN1CCN(Cc2ccc(C(=O)Nc3ccc(C)c(NCc4cnc5[nH]ccc5c4OC)c3)cc2C(F)(F)F)CC1	binding, competition with immobilised ligand	–	1 µM	–	remaining binding	41%
COCC12C(=O)NC3C4(C(OC)CC1O)C1CC5(O)C(OC)C(O)C(OC(C)=O)(C1C5OC(=O)c1ccccc1)C3(O)C(OC)C24 (stereo not drawn)	kinase activity, inhibitor, ProQinase kinase profiling	–	25 µM	baseline: control	remaining activity	86% and 93%
CS(=O)(=O)Nc1cccc(-c2csc3cnc(Nc4ccc(N5CCN(CCCCCOc6cccc7c6C(=O)N(C6CCC(=O)NC6=O)C7=O)CC5)cc4)nc23)c1 (stereo not drawn)	probe labelling, inhibitor, KiNativ chemoproteomics	MOLT-4	1 µM	–	inhibition	-13%
Cc1ccc(C(=O)Nc2ccc(CN3CCN(C)CC3)c(C(F)(F)F)c2)cc1C#Cc1cnc2cccnn12	target engagement, NanoBRET	human cells	–	–	upper asymptote	73.6

Excerpt of the above:
SMILES	assay	test system	setting	scale	endpoint	value
CNC(=O)C[C@H](Cc1ccc(C#N)cc1)NC(=O)c1cc(-c2ccc(CN[C@H](C)c3ccc(C)cc3)o2)ccc1Cl	enzyme activity, inhibitor	–	1 µM	–	activity vs control	101%
C=CC(=O)N1CCc2ccc(-n3c(=O)ccc4cnc5ccc(-c6cnn(C)c6)cc5c43)cc21	KINOMEscan	–	1 µM	baseline: DMSO control	remaining binding	100%
